Results collected from several papers.
Each line is one published result; not all experiments were run side by side. Several values in a cell are separate wells, animals, samples, runs or records. ± marks the error that the study gave. In brackets after ≈: the same amount, converted by molar mass.

Structure (SMILES)	organism	test	system	conditions	scale	endpoint	value
C/C(=C\c1ccc(O)cc1)C(=O)Nc1ccc(C(=O)N[C@@H](Cc2c[nH]nn2)C(=O)Nc2ccc(C(=O)Nc3ccc(C(=O)Nc4ccc(C(=O)O)cc4)cc3)cc2)cc1	Salmonella enterica serovar Kentucky	broth microdilution	ciprofloxacin-resistant	–	–	MIC	0.25 µg/mL (≈ 0.315 µM)
Cc1ccc(C(=O)N2CCN(c3ccc(F)cc3)CC2)cc1[N+](=O)[O-]	Saccharomyces cerevisiae	cell growth	wild type	–	–	IC50	> 200000 nM
COc1c(NC(=O)c2ccc(NC(=O)c3ccc(NC(=O)[C@H](Cc4c[nH]nn4)NC(=O)c4ccc(NC(=O)/C(C)=C/c5ccc(O)cc5)cc4)cc3)cc2O)ccc(C(=O)O)c1O	Salmonella Typhimurium	broth microdilution	TA100	–	–	MIC	0.125 µg/mL (≈ 0.146 µM)
FC(F)(F)c1cccc(CNc2nc(NC3CCN(Cc4ccccc4)CC3)c3nc[nH]c3n2)c1	Cryptococcus neoformans	RNA-seq, refers to: CNAG_00388	wild type	48 µg/mL, 3 h	baseline: untreated wild type	log2 fold change	-0.334
Nc1nc(-c2ccccc2)nc2[nH]nc(Nc3cccnc3)c12	rhinovirus B5	viral cytopathic effect	HeLa	–	–	IC50	5040 nM
Cc1ccc2c(c1)nc(NC(=O)c1cccc(C(F)(F)F)c1)n2[C@H]1CC[C@H](N)CC1	Trypanosoma cruzi	intracellular amastigote growth	Tulahuen	mean value	–	EC50	1270 nM
COc1cc(C(=O)Nc2ccc(C(=O)O)c(O)c2)ccc1NC(=O)c1ccc(NC(=O)[C@H](Cc2c[nH]nn2)NC(=O)c2ccc(NC(=O)/C(C)=C/c3ccc(O)cc3)cc2)cc1	Salmonella enterica serovar Kentucky	broth microdilution	ciprofloxacin-sensitive	–	–	MIC	0.25 µg/mL (≈ 0.298 µM)
O=c1[nH]cc(C(c2ccccc2Br)c2c[nH]c(=O)[nH]c2=O)c(=O)[nH]1	HIV-1 subtype C	p24 antigen production, p24 ELISA	–	500 µg/mL	–	inhibition	70%
COC1CCC(N(C(=O)C2CCC(C)CC2)c2cc(C3=CCCCC3)sc2C(=O)O)CC1 (centres unmarked)	Arabidopsis thaliana	–	spy-4	10 µM	–	root hair density	23.4 root hairs/mm
O=c1[nH]cc(C(c2ccc(Cl)cc2)c2c[nH]c(=O)[nH]c2=O)c(=O)[nH]1	HIV-1 subtype C	p24 antigen production, p24 ELISA	–	1000 µg/mL	–	inhibition	97%
OC(Cn1cncn1)(Cn1cc(-[c-]2cccc2)nn1)c1ccc(F)cc1F.[Cl-].[Co+3].c1cc[cH-]c1 (racemic)	Trypanosoma cruzi	–	CL Brener	–	baseline: Vero IC50 over parasite IC50	selectivity ratio	22.5
Nc1nc(-c2ccccc2)nc2[nH]nc(Nc3c(F)cccc3F)c12	rhinovirus B5	viral cytopathic effect	HeLa	–	–	IC50	1000 nM
CCCCC(CC)COC(=O)CC(C(=O)OCC(CC)CCCC)S(=O)(=O)O.COC(=O)Nc1nc2cc(C(=O)c3ccc(F)cc3)ccc2[nH]1 (centres unmarked)	Cryptococcus neoformans	EUCAST broth microdilution	clinical isolate	72 h, 37 °C, RPMI with 2% glucose	–	IC90	625 nM
C#CCOc1ccc2c(=O)c(/C=C/C(=O)N3CCN(C(=S)SCCCN(C)C)CC3)coc2c1	Orthotospovirus tomatomaculae	viral infection, half-leaf method	–	500 µg/mL	–	inactivation activity	66.2 ± 3.1%
Cc1cccc2c1N(C(=O)n1ccnn1)CC2	Lactuca sativa	–	seeds	50 µM, in darkness, together with: 1 µM karrikin KAR1	–	germination rate	36% and 33.3% and 31.4% and 21.3% and 35.4% and 43.8% and 33.5%
C=C(NC(=O)c1csc(-c2nc3c(cc2O)-c2nc(cs2)C(=O)NC(C(C)O)C(=O)NC(=C(C)OC)c2nc(cs2)C(=O)NC2c4nc(cs4)C(=O)NC(COC(=O)c4c5c6c(cccc6n4O)COC(=O)C(OC4CC(C)(O)C(N(C)C)C(C)O4)C2OC5)c2nc-3cs2)n1)C(N)=O (centres unmarked)	Enterococcus faecalis	–	vancomycin-intermediate, 10 isolates	serum 0%	–	MIC50	0.0156 µg/mL (≈ 0.0109 µM)
C/C(=N\NC(=O)c1ccc(Cl)cc1)c1ccccn1	Trypanosoma cruzi	reporter mRNA translation, inhibitor, refers to: capped polyadenylated Renilla luciferase mRNA	cell-free extract	concentration not given	baseline: positive over negative control	translation activity	107% and 104% and 121% and 115%
CN(Cc1ccc(C2(C(F)(F)F)CCC2)cc1)Cc1cccc2ccccc12	Trichophyton rubrum	microbial growth, disc diffusion	ATCC28188	0.008 µg/mL, 6 days	–	inhibition zone	20.5 mm
Cc1ccc(Nc2n[nH]c3nc(-c4cccc(F)c4)nc(N)c23)cc1	rhinovirus B5	viral cytopathic effect	HeLa	–	–	IC50	190 nM
COc1ccc(CNc2nc([C@H]3CC[C@H](C(=O)O)CC3)nc3sc4ccccc4c23)cc1Cl	Cryptosporidium parvum	parasite growth, immunofluorescence imaging	HCT-8, Iowa	667 nM	–	inhibition	32.1% and 18.8%
O=[N+]([O-])c1cc(Br)cc([N+](=O)[O-])c1NS(=O)(=O)c1ccc(Br)cc1	Arabidopsis thaliana	–	Col-0 wild type, seeds	1 µM	–	number of germinated seeds	38 and 37
COc1c(NC(=O)c2ccc(NC(=O)c3ccc(NC(=O)[C@H](Cc4c[nH]nn4)NC(=O)c4ccc(NC(=O)/C(C)=C/c5ccc(O)cc5)cc4)cc3)cc2)ccc(C(=O)O)c1O	Salmonella enterica serovar Kentucky	broth microdilution	ciprofloxacin-resistant	–	–	MIC	0.25 µg/mL (≈ 0.298 µM)

Structure (SMILES)	organism	test	system	conditions	scale	endpoint	value
Cc1ccc(Nc2n[nH]c3nc(-c4ccccc4)nc(N)c23)cc1	rhinovirus B5	viral cytopathic effect	HeLa	–	–	IC50	10 nM
COc1cc(C(=O)O)ccc1NC(=O)c1ccc(NC(=O)c2ccc(NC(=O)[C@H](Cc3c[nH]nn3)NC(=O)c3ccc(NC(=O)/C(C)=C/c4ccc(O)cc4)cc3)cc2)cc1	Salmonella enterica serovar Kentucky	broth microdilution	ciprofloxacin-resistant	–	–	MIC	0.5 µg/mL (≈ 0.608 µM)
O=[N+]([O-])c1cn2c(n1)OC[C@@H](OCc1ccc(OC(F)(F)F)cc1)C2	Mycobacterium marinum	–	–	–	–	MIC90	50 µM (≈ 18 µg/mL)
Cc1ccccc1C(c1c[nH]c(=O)[nH]c1=O)c1c[nH]c(=O)[nH]c1=O	HIV-1 subtype C	p24 antigen production, p24 ELISA	–	250 µg/mL	–	inhibition	55%
CC(C)n1ncc2c(C(=O)NCC(C)(C)N)cc(C3CC3)nc21	Enterovirus A71	viral replication	Tainan/4643/1998	900 nM	–	plaque reduction	100% and 92.2%
CC1=NN(c2ccccc2F)C(=O)/C1=N\Nc1ccc(S(N)(=O)=O)cc1	Saccharomyces cerevisiae	–	–	50 µg/mL	–	glucose uptake	41.1%
CC(C)(C)NCC(SS(=O)(=O)O)c1ccccc1 (centres unmarked)	Schistosoma mansoni	–	mice	400 mg/kg single dose, 1248 h, dosed day 7, perfused 52	baseline: vehicle	female worm burden reduction	37%
COc1c(NC(=O)c2ccc(NC(=O)[C@H](Cc3c[nH]nn3)NC(=O)c3ccc(NC(=O)/C(C)=C/c4ccc(O)cc4)cc3)cc2)ccc(C(=O)Nc2ccc(C(=O)O)c(O)c2)c1O	Salmonella enterica serovar Kentucky	broth microdilution	ciprofloxacin-resistant	–	–	MIC	0.25 µg/mL (≈ 0.292 µM)
Cc1cccc2c1N(C(=O)n1ccnc1)CC2	Arabidopsis thaliana	–	wild type, seeds	3 µM, after high-temperature exposure, together with: 1 µM karrikin KAR2	–	germination rate	53.3% and 58.3% and 52.1% and 54.9% and 63.2% and 64.1% and 62.5%
CC1=C[C@@H](O/C=C2/C(=O)O[C@@H]3c4ccccc4C[C@H]23)OC1=O	Phelipanche ramosa	seed germination, stimulant	seeds	–	–	EC50	0.84 nM
Cc1ccc(-c2nc(N)c3c(Nc4ccc(Cl)cc4)n[nH]c3n2)cc1	rhinovirus B5	viral cytopathic effect	HeLa	–	–	IC50	170 nM
CN1CCc2c(sc3c2c(=O)n(-c2ccccc2)c2nnc(SCc4ccccc4)n32)C1	Trypanosoma cruzi	reporter mRNA translation, inhibitor, refers to: Renilla luciferase mRNA	cell-free extract	concentration not given, test 2	baseline: positive over negative control	translation activity	103% and 94.3%
O=c1[nH]cc(C(c2cccc(Cl)c2)c2c[nH]c(=O)[nH]c2=O)c(=O)[nH]1	HIV-1 subtype C	p24 antigen production, p24 ELISA	–	250 µg/mL	–	inhibition	77%
N=C(N)NCCC[C@@H]1NC(=O)[C@H](CCCNC(=N)N)NC(=O)[C@@H](C(c2ccccc2)c2ccccc2)NC(=O)[C@H](Cc2c[nH]c3ccccc23)NC(=O)[C@@H](C(c2ccccc2)c2ccccc2)NC(=O)[C@@H](CCCNC(=N)N)NC(=O)[C@@H](CCCNC(=N)N)NC1=O	Staphylococcus aureus	time-kill	MRSA ATCC BAA-1556	4 × MIC, 1 h	–	killing	> 85%
CC(C)n1ncc2c(C(=O)NC[C@@H](C)N)cc(C3CC3)nc21	Enterovirus A71	viral replication	Tainan/4643/1998	900 nM	–	plaque reduction	92.7% and 95.2%
COc1cc(C(=O)O)ccc1NC(=O)c1ccc(NC(=O)c2ccc(NC(=O)[C@H](Cc3c[nH]nn3)NC(=O)c3ccc(NC(=O)/C(C)=C/c4ccc(O)cc4)cc3)cc2)c(OC)c1O	Salmonella enterica serovar Kentucky	broth microdilution	ciprofloxacin-resistant	–	–	MIC	1 µg/mL (≈ 1.15 µM)
O=c1[nH]cc(C(c2cccc(C(F)(F)F)c2)c2c[nH]c(=O)[nH]c2=O)c(=O)[nH]1	HIV-1 subtype C	p24 antigen production, p24 ELISA	–	1000 µg/mL	–	inhibition	90%
Cc1cc(=O)oc2c(F)c(OC3C=CC(=O)O3)c(F)cc12 (racemic)	Phelipanche ramosa	stimulant	–	1 µM	baseline: (±)-GR24	maximum germination stimulation	97%
COc1cc(C(=O)Nc2ccc(C(=O)O)c(O)c2OC)ccc1NC(=O)c1ccc(NC(=O)[C@H](Cc2c[nH]nn2)NC(=O)c2ccc(NC(=O)/C(C)=C/c3ccc(O)cc3)cc2)cc1	Salmonella enterica serovar Kentucky	broth microdilution	ciprofloxacin-resistant	–	–	MIC	1 µg/mL (≈ 1.15 µM)
CC1=CC(Oc2c(F)cc3c(C)cc(=O)oc3c2F)OC1=O (racemic)	Phelipanche ramosa	stimulant	–	1 µM	baseline: (±)-GR24	maximum germination stimulation	85%
CC(=O)OC[C@H]1O[C@@H](Sc2sc(C(=O)c3ccc(Cl)cc3)c(N)c2-c2nc3ccccc3s2)[C@H](OC(C)=O)[C@@H](OC(C)=O)[C@H]1OC(C)=O	Hepatitis C virus	viral replication, inhibitor	Huh7.5, genotype 4 ED43	concentration not given, non-toxic dose, HCVcc	–	viral titre reduction	20%
[2H]C([2H])(N)C([2H])([2H])NC(=O)c1cc(C2CC2)nc2c1cnn2C(C)C	Enterovirus A71	viral replication	Tainan/4643/1998	900 nM	–	plaque reduction	91.4% and 95.6%
